Assay results from different studies.
Lines come from different studies, so protocols differ. Values joined by “and” are separate records of one study, mostly repeats; a detail may differ. ± gives the spread as reported.
Cell line: SK-OV-3

Compound	test	system	setting	scale	measurement	value
Cc1cc(-c2ccccc2)n(-c2nc(-c3ccc(Cl)cc3)c3c(NC(=O)c4ccccc4)nnc-3[nH]2)n1	SRB		10 µM, NCI60 single-dose screen	relative to: untreated	cell growth	97.8%
C=CC(=O)N1CCC(CCCC(=O)N2CCN(c3nc(-c4cnc(N)nc4C(F)F)nc(N4CCOCC4)n3)CC2)CC1	Akt phosphorylation, inhibitor, in-cell western, refers to: Akt pSer473				IC50	0.0214 µM
[NH2][Pt]([NH2])([Cl])[Cl]	cell viability, CCK-8		single drug		IC50	24.8 ± 2.7 µM
CC(C)C[C@@H](C=O)NC(=O)[C@H](CC(C)C)NC(=O)[C@H](CC(C)C)NC(=O)OCc1ccccc1	Western blot	3D culture in gellan gum	3 µM, 24 h, unit not given	relative to: β-actin	LATS protein level	0.83 ± 0.16
C=CC(=O)N1CCC(COCC(=O)N2CCN(c3nc(-c4cnc(N)nc4C(F)F)nc(N4CCOC[C@@H]4C)n3)CC2)CC1	western blot, refers to: phospho-S6 Ser235/Ser236		2 h		IC50	0.0367 µM
O=C1NCCc2[nH]c(-c3ccncc3)cc21	MTS		NCI60 panel		IC50	> 10 µM
Cn1cncc1C1=CN(c2ncnc3[nH]cnc23)CCS1			ovarian cancer		GI50	6.8 µM
NNc1nc(-c2ccc(Cl)cc2)c2c(NC(=O)c3ccccc3)nnc-2[nH]1	SRB		10 µM, NCI60 single-dose screen	relative to: untreated	cell growth	108%
Cn1cc(-c2ccc(F)c(C(F)(F)F)c2)nc1C1CCN(c2ncnc3[nH]ncc23)CC1	ATP	2D monolayer culture	10 µM, 4 days	relative to: untreated	relative cell number	104%
CCn1cc(-c2cc(Cn3ccnc3)cc3c2CCN([C@H](c2cc(OC)ccn2)C2CC2)C3=O)c(C(F)(F)F)n1	cell growth, inhibitor		120 h		EC50	> 30 µM
C=CC(=O)N1CCC(C(=O)NCCN2CCN(c3nc(-c4cnc(N)nc4C(F)F)nc(N4CCOCC4)n3)CC2)CC1	Akt phosphorylation, inhibitor, in-cell western, refers to: Akt pSer473		1 h		IC50	0.0684 µM
CC/C(=N\NC(=O)NCc1cccc(O)c1)c1ccc(O)c(C)c1O	Western blot		10 µM, 3 h, 2D culture, unit not given	relative to: DMSO	TAZ band intensity	0.12 ± 0.07
C#C[C@@]1(O)[C@@H](CO)O[C@@H](n2ccc3c(N)ncnc32)[C@@H]1O	SRB		NCI-60 screen		TGI	5.24 µM
CO[C@@H]1C[C@@H](C[C@H]2CC[C@H](C)[C@H]([C@@H](C)C(=O)O)O2)O[C@]2(O[C@](C)([C@H]3CC[C@@](C)([C@@H]4O[C@@H]([C@H]5O[C@@](O)(CO)[C@H](C)C[C@@H]5C)C[C@@H]4C)O3)C[C@H]2C)[C@@H]1C	FLICA		concentration not given		caspase-1 activation	positive
CCOC(=O)CSc1nc(-c2ccc(Cl)cc2)c2c(NC(=O)c3ccccc3)nnc-2[nH]1	SRB		10 µM, NCI60 single-dose screen	relative to: untreated	cell growth	94.5%
C#C[C@@]1(O)[C@@H](CO)O[C@@H](n2cc(Cl)c3c(N)ncnc32)[C@@H]1O	SRB		NCI-60 screen		TGI	0.573 µM and 0.467 µM
Cc1nc(NC(=O)N2CCC[C@H]2C(N)=O)sc1-c1ccnc(C(C)(C)C(F)(F)F)c1	western blot, refers to: phospho-S6 Ser235/Ser236		2 h		IC50	0.162 µM
O=C(Nc1nnc2[nH]c(=S)[nH]c(-c3ccc(Cl)cc3)c1-2)c1ccccc1	SRB		10 µM, NCI60 single-dose screen	relative to: untreated	cell growth	105%
O=C(O)c1ccc(-c2c[nH]c3ncc(-c4ccccc4)cc23)cc1C1CCCC1	ATP		0.1 µM, 4 days, 3D gellan gum culture	relative to: untreated	relative cell number	96.6%
C=CC(=O)N1CCC(C(=O)NCC(=O)N2CCN(c3nc(-c4cnc(N)nc4C(F)F)nc(N4CCOCC4)n3)CC2)CC1	Akt phosphorylation, inhibitor, in-cell western, refers to: Akt pSer473		1 h		IC50	0.0817 µM
C[C@H](Nc1ccc2c(c1)OCCn1cc(N3C(=O)OC[C@H]3C(F)F)nc1-2)C(N)=O	growth rate inhibition, CellTiter-Glo		120 h		IC50	0.251 µM
O=C(Nc1nnc2n3c(=S)[nH][nH]c3nc(-c3ccc(Cl)cc3)c1-2)c1ccccc1	SRB		10 µM, NCI60 single-dose screen	relative to: untreated	cell growth	99.3%
C=CC(=O)N1CCC(COCC(=O)N2CCN(c3nc(-c4cnc(N)nc4C(F)F)nc(N4CCOCC4)n3)CC2)CC1	Akt phosphorylation, inhibitor, in-cell western, refers to: Akt pSer473		1 h		IC50	0.0193 µM
CCCCCCOC(=O)[C@]1(O)C[C@@H]2O[C@@]1(C)n1c3ccccc3c3c4c(c5c6ccccc6n2c5c31)C(=O)NC4	ATP		1 µM, 4 days, 3D U-bottom low-attachment	relative to: untreated	relative cell number	97.8%
CCN(CC)c1ccc(C=NNC(=O)CSc2nc3ccccc3c(=O)n2Cc2ccc(S(N)(=O)=O)cc2)c(O)c1	NCI five-dose screen				TGI	> 100 µM
Clc1ccc(C2(c3ccc(-c4cn[nH]c4)cc3)CCNCC2)cc1	ATP	3D gellan gum culture	0.01 µM, 4 days	relative to: untreated	relative cell number	82.7%
C=CC(=O)N1CCC(Cc2cccc(C(=O)N3CCN(c4nc(-c5cnc(N)nc5C(F)F)nc(N5CCOCC5)n4)CC3)c2)CC1	Akt phosphorylation, inhibitor, in-cell western, refers to: Akt pSer473				IC50	0.0407 µM
CCn1c(-c2nonc2N)nc2cncc(CNC3CCNCC3)c21	ATP		0.1 µM, 4 days, 3D U-bottom low-attachment	relative to: untreated	relative cell number	113%
C[C@H](Nc1ccc2c(c1)OCCn1cc(N3C(=O)OC[C@H]3C(F)F)nc1-2)C(N)=O	FOXO1 translocation, kinase translocation reporter		2 h		IC50	0.578 µM

For quick reference, copied from above:
Compound	test	system	setting	scale	measurement	value
CCn1cc(-c2cc(Cn3ccnc3)cc3c2CCN([C@H](c2cc(OC)ccn2)C2CC2)C3=O)c(C(F)(F)F)n1	cell growth, inhibitor		120 h		EC50	> 30 µM
C=CC(=O)N1CCC(C(=O)NCCN2CCN(c3nc(-c4cnc(N)nc4C(F)F)nc(N4CCOCC4)n3)CC2)CC1	Akt phosphorylation, inhibitor, in-cell western, refers to: Akt pSer473		1 h		IC50	0.0684 µM
CC/C(=N\NC(=O)NCc1cccc(O)c1)c1ccc(O)c(C)c1O	Western blot		10 µM, 3 h, 2D culture, unit not given	relative to: DMSO	TAZ band intensity	0.12 ± 0.07
C#C[C@@]1(O)[C@@H](CO)O[C@@H](n2ccc3c(N)ncnc32)[C@@H]1O	SRB		NCI-60 screen		TGI	5.24 µM
CO[C@@H]1C[C@@H](C[C@H]2CC[C@H](C)[C@H]([C@@H](C)C(=O)O)O2)O[C@]2(O[C@](C)([C@H]3CC[C@@](C)([C@@H]4O[C@@H]([C@H]5O[C@@](O)(CO)[C@H](C)C[C@@H]5C)C[C@@H]4C)O3)C[C@H]2C)[C@@H]1C	FLICA		concentration not given		caspase-1 activation	positive
